Results collected from several papers.
A part holds a random share of what one study measured.

Set 1 — method: RNA Bind-n-Seq; form: RNA; matrix: in vitro; tested at: not given; baseline: input RNA pool; reading: higher = stronger binding
Target: RING finger protein unkempt homolog, zinc fingers 1-6, GST-SBP tag (UNK, Homo sapiens, UniProt Q9C0B0, residues 30-357)
Sequence of UniProt Q9C0B0 (30-357, looked up): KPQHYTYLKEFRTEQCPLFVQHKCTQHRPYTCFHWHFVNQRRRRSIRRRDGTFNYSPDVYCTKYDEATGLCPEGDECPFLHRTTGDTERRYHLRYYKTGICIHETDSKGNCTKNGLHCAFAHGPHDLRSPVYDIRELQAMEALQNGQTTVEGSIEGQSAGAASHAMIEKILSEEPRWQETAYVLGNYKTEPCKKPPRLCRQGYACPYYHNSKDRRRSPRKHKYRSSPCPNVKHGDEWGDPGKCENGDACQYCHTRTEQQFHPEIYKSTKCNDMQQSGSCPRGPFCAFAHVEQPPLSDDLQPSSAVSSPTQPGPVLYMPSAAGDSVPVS
Setting: RNA with constant flanks, human-mouse chimeric sites, ends assumed
All sequences stand within: GGGAGUUCUACAGUCCGACGAUC … CAACAGAGGAUUGAGCAUCA
Oligonucleotide	bound/input enrichment
CACGUGUCUGCAGUACUUGAUGUGGACUACUCUCCCACUGGGAAGGAGUUUGUGUCUGCCAGCUUUGAUAAGUCUAUUCGAAUCUUUCCUGUGGACAAGAGCCGAAGCAGGGAAGUGUAU	0.104 ratio
GAGCGUCUUGCCCGCACUGGGAUCAUCGUGACCACUAGUGAGGCUGUCCUCCUACAGCUGGUGGCUGAUAAGGACCAUCCAAAAUUCAAGGAAAUUCAGAACCUAAUUAAGGCGAGUGCC	0.127 ratio
GCAAAGGAUGAUGAGGCGGCAGCUGUUGCCCUUUCCUCCCUGAUUCAUGCUUUGGAUGAGUUAAACAUGGUGGCCAUCGUCCGAUAUGCUUAUGACAAAAGAUCUAAUCCUCAAGUUGGU	0.132 ratio
UUAAACACCAAGCUGAUGGACUCUGAUGGCCUCCAUCUCUCAGGCACGUGUGCCUUCUCUUAGUCCCUGUUUUCGGGAUGUUAUGAACAGUAUCAUGGUGGUUUGAAAGCACCAGCUUUG	0.129 ratio
UAUAUCACCAAUGUCCUACAAAAUCCUGAUUUGGCUCUGAGAAUGGCUGUACGUAAUAACUUAGCUGGUGCUGAAGAACUCUUUGCCCGGAAAUUUAAUGCUCUCUUCGCCCAGGGAAAC	0.485 ratio
AAUUUCCUGUCAUACUUUUUAGACAUUCACAUCAGACGCCUUACUACCCUGGCCACAUUCUAGGUUUGAAUUAUUUCUCAGCUAUGGAUAUGAUCAAAUGAGAACACUGCUUAACUAAUG	0.637 ratio
ACUCUUGACUCUUUCCAUCCUCUUCCUUUCCCUCUUGAUAUUCAAGGCCAUGAAUCCCAAAAUAGCUGUCUUAGUGGCUAGCACCCAAACAGAGGUGGAAUAAAUCCAAACUGACAACUC	0.983 ratio
CCAAUUGUGGAGCAGUACUUGAAGACAAAAAAGAACUCUAAUAAUUUAAUCAUCAAGUACAUUAGCUGCCGGCUGGUGACACUCAUCAUUAUACUGUUAGCGUGUAUCUACCUGGGCUAU	0.239 ratio
UGGCGCCUGCGCUCCCCACUCGUGUUUUUAAGUGUAUUUUUAUAAGACAUGUGUAUUUACAAUUGAGCUUUUGUUACAUAAUGCUGAAAUGCUACUGGAGAUUAUGAAAAAAUGUUAAAU	0.198 ratio
UCGGAUGCUGUGCUGGGUCACUUUUCAUAUCCUGAUCCUUCCCAGUGGACAGAUGAAGAACUGGGAAUCCCUCCUGAUGACGAGGACUGACACUGUAAACUCUCUGGACGAGUAGGAGCA	0.634 ratio
GGUGGGGGGUUGUCAUUCGUUUGAGCUGCUGAUUUUCAUGAGUCGCCCAUUCAGAACUCGUGUAGGGUUGACAAUGUGGGGGGGUGGGGGAUCCAGCUUAUUCUUUUAUUUUCAAGUCCA	0.832 ratio

Set 2 — method: aptamer microarray, sandwich; form: DNA with 2'F-ANA; matrix: in vitro; tested at: 200 nM; with: Cy3 exosite-II aptamer, 400 nM; reading: higher = stronger binding; oligonucleotide: GGTTGGTGTGGTTGG
Target: Prothrombin, mature alpha-thrombin (F2, Homo sapiens, UniProt P00734)
Setting: whole 15-mer aptamer, many near background
Modification	mean fluorescence intensity [a.u.]
2'F-ANA at 4 5 8 10 11 13 15	45.9
2'F-ANA at 1 3 4 6 9 13	114
2'F-ANA at 2 3 4 6 8 9 10 11 12 13 14	154
2'F-ANA at 1 3 4 5 6 7 9 10 11 13 15	54.9
2'F-ANA at 1 2 7 9 10 13 14	71.6
2'F-ANA at 1 4 6 8 9 10 11 12 13 15	51.6
2'F-ANA at 2 4 5 6 7 10 11 12 13 14 15	47
2'F-ANA at 2 3 4 9 11	583
2'F-ANA at 3 8 9 10 11 12 15	666
2'F-ANA at 2 3 4 6 8 11 13 14 15	213
2'F-ANA at 2 4 7 9 11 12 13 15	280
2'F-ANA at 5 7 9 12 13 14	45.7
2'F-ANA at 3 4 7 12 14	536
2'F-ANA at 1 4 5 9 11 15	51.4
2'F-ANA at 2 3 6 7 10 11 13 14 15	193
2'F-ANA at 1 2 5 6 8 12 13 15	86.7
2'F-ANA at 1 3 5 7 8 9 10 11 12 13 14	49.7
2'F-ANA at 1 4 7 9 10 12 13 14 15	46.8
2'F-ANA at 1 2 5 6 7 10 12 13 14	48.3
2'F-ANA at 1 2 5 7 11 13 14 15	47.8
2'F-ANA at 1 2 4 5 7 11 13	47.7

Set 3 — method: RNA Bind-n-Seq; form: RNA; matrix: in vitro; tested at: 365 nM; baseline: no-protein control; reading: higher = stronger binding
Target: RNA binding protein fox-1 homolog 2, RRM domain, GST-SBP tag (RBFOX2, Homo sapiens, UniProt O43251-10, residues 100-194)
Setting: natural RNA segment, single round, ends assumed
All sequences stand within: GGGAGUUCUACAGUCCGACGAUC … UGGAAUUCUCGGGUGCCAA
Construct (chain): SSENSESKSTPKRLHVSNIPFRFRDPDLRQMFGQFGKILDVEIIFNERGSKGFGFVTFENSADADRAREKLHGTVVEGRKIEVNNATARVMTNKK
Oligonucleotide	RBNS enrichment (R)
UCUCGUAUUGGCAGAUCUUGACAGGCUGGACCUGCAAGAUGUGGCUUGAAUUUUAACCAUUUAUUACAUAAUCUCUAGUGAUCAUGCAUCUAGUUAUCAUAAGAAAUAAU	0.278
AAAUUGCUUGUCUAUAGUUGUCUGCAGUACUGUAUGAUUUUACCCAUGUGCAAUUUGUAAAAUGAACCAGAUGUCACUACUUUUGUCUUUAUUUCAAGAAUAUGGCCAUC	1.25
ACAGUCCCUUGUGCCAGGUCAGCUAGCAUGGUGGCCUCCUGCAGAGGACUUGGUUUCUCAUCCACUUGAGGACUAUUUCCAGGUGCCAGGAGAAACCGUGCCCAUUUAGA	0.516
UUGUUUUUCACACCUGGGGUCAGGGGUAUCGAUAGUCACGGCUGCCAUUGGCUUUAGGUCUCUGGACCAGAGACAGGAGAGGCUUUGCGACUCCAAAGCUCUAGGCCAGA	0.276
AAACAAAUCUUGUUGCUGAUUUGUCCAUUUCUUUCCCUGCACUUUGUUACAUCUGGGAUACAGUCUAACUCAUCUGACUUAAUAUGCAUUUAAAAAAAUGCCAUAACUAU	0.44
CAGCUGUUGCAGGCAGUGUCUUAAGGAGACUGGUAGGAGGAGGCAUGGAAACCCAAAGGCCGUGUGUGUUUAGAAGCCUAACUGUCACAUCAAGCAUCAUCGUCCCCAUG	1.65
CAGAGAAGGAGGUGGGGGCUGUGAAUUGGUUGUUAGUUUCUGAAUUUUACCAAAUAAAGUAGAAUCUAAGAAGAAACUCUUAUUGGUCUCUGCUUUUCUCCUCUGCCCAC	0.349
CAGUCAUUUCUGAAUCUUUCCACAUUAUAUUAUAAAAUAUGGAAAUGUCAGUUUAUCUCCCCUCCUCAGUAUAUCUGAUUUGUAUAAGUAAGUUGAUGAGCUUCUCUCUA	0.409
UUCUUUCUGGUCCCAUCUUAAACGUCUUCUGUUGUGCUGCACCCCAGAUGGUGUCUCAGAUGCUUUGGGGAAUCUUUAACAGCUGAAUUUGAGUCAGUCCUCUUAGGCUG	0.293
GAUUCCUCUGGCCAAGAGUACAGCUUGUGAACUCACCCAAGUGCAUGAGAGUUUUUCUAAAUCUACAUGAAAAACAAAUUUUCCUGGGUUUCAGUACAUUGGCUUUUACA	8
GGAACCUAGAGUUAGUCAGGAGUAAAGUCUGUCUAAGGGGAUCGGCAAGCUGCCAGACAACUCUGGCUCCUGUCAACCUUUUCACCUGGUGCCACAAAAGUAUUUCUGCU	0.326
AAUCAUAACUCAGGGGCUUUGAACAGAGCUGUCUCUGUUUCAAUUGGCAUCCUUGCUCAUCCAUUCCUGUCUACCUCCCUUGUUAGUCUAGAUUUCUGGAGUUAUGUUCC	0.311

Set 4 — method: protein binding microarray; form: double-stranded DNA, one strand shown; matrix: in vitro; tested at: not given; baseline: not given; reading: higher = stronger binding
Target: Histone acetyltransferase KAT6A, winged helix 2, GST fusion (KAT6A, Homo sapiens, UniProt Q92794, residues 85-181)
Setting: 8-mer, flanks averaged, mean of 2 arrays, mostly near background
Residues (chain): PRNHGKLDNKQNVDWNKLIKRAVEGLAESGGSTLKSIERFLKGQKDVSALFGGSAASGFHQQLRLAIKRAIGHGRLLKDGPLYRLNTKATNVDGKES
Oligonucleotide	E-score
GGGTGCCA	0.0208
ATCGGACA	-0.0338
ACCTATAA	-0.182
AGGTATTA	-0.0165
CATGTACA	-0.181
ACGAGAGG	0.0247
CCACGAAG	0.129
GGTACCGA	0.0205
AAGGGTCG	0.0535
ACGCCGAG	0.155
ACTAATAC	0.0664
AAGGCGCG	-0.0212
GTCTTGCA	0.113
AACAACAG	0.036
AATCAAAT	-0.116
CAGCGATA	-0.0518
AACGCATT	0.105
AATGAGAG	-0.184
AGCCCCTC	-0.00715
GCGTGTAA	-0.0948

Set 5 — method: protein-binding microarray; form: double-stranded DNA, one strand shown; matrix: in vitro; tested at: 0.8 µM; setting: whole 60-bp probe, no competitor; reading: higher = stronger binding; all sequences stand within: … GTCTTGATTCGCTTGACGCTGCTG
Target: Centromere-binding protein 1, full length, N-terminal tag (CBF1, Saccharomyces cerevisiae, UniProt P17106, residues 1-351)
Sequence of UniProt P17106 (whole entry, looked up): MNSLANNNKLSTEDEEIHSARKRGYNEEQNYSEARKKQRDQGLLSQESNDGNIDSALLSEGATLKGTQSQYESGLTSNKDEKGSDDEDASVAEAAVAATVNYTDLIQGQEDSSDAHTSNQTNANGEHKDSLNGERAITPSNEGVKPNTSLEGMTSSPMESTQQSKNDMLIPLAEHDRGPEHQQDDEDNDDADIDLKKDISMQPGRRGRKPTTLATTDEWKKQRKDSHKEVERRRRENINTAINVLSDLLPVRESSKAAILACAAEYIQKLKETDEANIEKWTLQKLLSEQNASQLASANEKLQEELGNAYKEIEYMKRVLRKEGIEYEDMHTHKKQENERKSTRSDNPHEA
Oligonucleotide	fluorescence intensity [a.u.]
GAATTGGTAGATGGTCACACAGCACGGTGTTTTTAG	573
CCTAACTACTATAATCACGACATATAGCTTCGTACA	749
GAAAGGCTAGTCTTTCACATGTAAGTCCGTGAATAG	618
CTAGCGTTTGGTAGTCGCGCGTGAATATGCTAATTC	590
CCTAACTACTATAATATCATGACATAGCTTCGTACA	531
GAATATCAGGCGGGTCACCTTTAGAAGGAACAATAG	552
CTAACATTTGAACACCCCGTCACCTGAGTCAGGTTC	1060
CTAGAACACATATCTCACGCTGATAACACCCTATTC	547
CTAGATTATTGTTACCTCGTCACCTGTTATCGGTTC	1760
CTATTCAAACCATGTGACACCAAACTTCGCAATTTC	6250
GAAGATCGTGACACTGCTGATGGTTTTGTCATTTAG	620
CTAGTTGTAACAGGACAGCTGACAATTGCTAAGTTC	702
CTATAGTTTGTCGCTGGTCACGTGCGACAATGCTTC	16800
CTATTTGTTCATGAGGCGGTGACGTAAAATTCGTTC	607
GAAATCATCATTATCATCACCATCACACCGCGCTAG	530
GAACTTCTTAGACCGCACGTGATGATATTGAGATAG	8050
GAATCTTTTCCTCGTGATTCTTTGTGATGCTCATAG	1360
GAAGTATAGCCAAAGAGCACGCCAAGTGGGGTCTAG	498
CTACTGATTTGAACTCATGTGATCACTTTTGTTTTC	2970
GAACTACATATATTTCGTGCGCTTTCAAAAATATAG	496
GAAATGGGTGTATATCACGTGATATATTATGCTTAG	38800
CTAAGCGGCTGGCAGCATGTGCATGATAATGATTTC	873
GAATTAAAACGGTATCACGTTTAAATATGTGACTAG	1320
CCTAACTACTATAAACAGGTGAGATAGCTTCGTACA	553

Excerpt of the above (set 5):
Oligonucleotide	fluorescence intensity [a.u.]
CTATTCAAACCATGTGACACCAAACTTCGCAATTTC	6250
GAAGATCGTGACACTGCTGATGGTTTTGTCATTTAG	620
CTAGTTGTAACAGGACAGCTGACAATTGCTAAGTTC	702
CTATAGTTTGTCGCTGGTCACGTGCGACAATGCTTC	16800
CTATTTGTTCATGAGGCGGTGACGTAAAATTCGTTC	607
GAAATCATCATTATCATCACCATCACACCGCGCTAG	530
GAACTTCTTAGACCGCACGTGATGATATTGAGATAG	8050
GAATCTTTTCCTCGTGATTCTTTGTGATGCTCATAG	1360
GAAGTATAGCCAAAGAGCACGCCAAGTGGGGTCTAG	498
CTACTGATTTGAACTCATGTGATCACTTTTGTTTTC	2970
